Published values gathered from unrelated publications.
Numbers after ± are the reported error.
BCHE: Cholinesterase (BCHE, Homo sapiens, UniProt P06276)
UniProt P06276, sequence (whole entry, looked up): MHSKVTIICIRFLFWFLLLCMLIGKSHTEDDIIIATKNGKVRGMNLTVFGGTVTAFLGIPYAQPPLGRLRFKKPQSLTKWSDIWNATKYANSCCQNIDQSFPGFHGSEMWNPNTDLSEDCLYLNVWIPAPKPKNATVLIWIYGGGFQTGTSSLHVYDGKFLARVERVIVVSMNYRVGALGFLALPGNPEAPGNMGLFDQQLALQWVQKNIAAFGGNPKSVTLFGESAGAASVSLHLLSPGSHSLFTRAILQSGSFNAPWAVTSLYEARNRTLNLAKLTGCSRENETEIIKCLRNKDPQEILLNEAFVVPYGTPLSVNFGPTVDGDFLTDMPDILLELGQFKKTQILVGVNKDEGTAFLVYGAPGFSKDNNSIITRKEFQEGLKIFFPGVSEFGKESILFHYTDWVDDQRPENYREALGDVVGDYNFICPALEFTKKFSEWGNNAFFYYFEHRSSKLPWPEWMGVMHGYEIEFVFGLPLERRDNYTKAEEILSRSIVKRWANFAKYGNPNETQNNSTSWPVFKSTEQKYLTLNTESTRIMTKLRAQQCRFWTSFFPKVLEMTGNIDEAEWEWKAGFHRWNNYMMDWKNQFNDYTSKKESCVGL
UniProt P42574, sequence (whole entry, looked up): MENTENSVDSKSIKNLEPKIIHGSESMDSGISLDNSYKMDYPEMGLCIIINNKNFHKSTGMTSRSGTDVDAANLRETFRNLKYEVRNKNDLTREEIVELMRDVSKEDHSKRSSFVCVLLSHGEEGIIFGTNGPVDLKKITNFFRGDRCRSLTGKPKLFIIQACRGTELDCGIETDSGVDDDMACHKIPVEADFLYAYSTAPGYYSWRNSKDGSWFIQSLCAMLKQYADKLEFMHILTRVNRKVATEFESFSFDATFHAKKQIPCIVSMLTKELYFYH
UniProt P41143, sequence (whole entry, looked up): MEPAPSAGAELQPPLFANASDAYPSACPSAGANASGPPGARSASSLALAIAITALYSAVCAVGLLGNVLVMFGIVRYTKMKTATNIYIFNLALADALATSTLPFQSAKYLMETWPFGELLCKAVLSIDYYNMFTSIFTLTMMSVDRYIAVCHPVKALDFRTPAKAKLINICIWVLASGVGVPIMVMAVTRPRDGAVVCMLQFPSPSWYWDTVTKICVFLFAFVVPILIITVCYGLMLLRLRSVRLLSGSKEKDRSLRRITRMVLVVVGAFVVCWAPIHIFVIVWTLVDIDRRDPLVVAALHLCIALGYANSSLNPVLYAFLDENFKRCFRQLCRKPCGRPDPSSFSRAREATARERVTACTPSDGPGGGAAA
UniProt P25123, sequence (whole entry, looked up): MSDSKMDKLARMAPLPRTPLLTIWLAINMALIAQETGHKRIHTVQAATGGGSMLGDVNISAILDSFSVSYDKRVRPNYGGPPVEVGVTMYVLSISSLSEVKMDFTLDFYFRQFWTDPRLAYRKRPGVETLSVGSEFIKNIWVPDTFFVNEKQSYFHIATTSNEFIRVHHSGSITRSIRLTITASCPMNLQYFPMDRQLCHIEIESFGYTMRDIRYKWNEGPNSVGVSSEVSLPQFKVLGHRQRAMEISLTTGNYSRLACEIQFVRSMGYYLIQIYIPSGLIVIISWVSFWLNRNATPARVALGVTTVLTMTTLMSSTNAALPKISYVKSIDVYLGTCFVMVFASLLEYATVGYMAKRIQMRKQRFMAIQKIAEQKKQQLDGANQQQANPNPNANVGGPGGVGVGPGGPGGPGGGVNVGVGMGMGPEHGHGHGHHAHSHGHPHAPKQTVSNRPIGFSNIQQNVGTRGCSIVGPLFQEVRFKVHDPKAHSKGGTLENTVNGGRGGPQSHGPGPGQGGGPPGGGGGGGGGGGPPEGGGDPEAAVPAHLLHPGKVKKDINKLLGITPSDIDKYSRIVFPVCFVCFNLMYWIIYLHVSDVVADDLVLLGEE
UniProt P14867, sequence (whole entry, looked up): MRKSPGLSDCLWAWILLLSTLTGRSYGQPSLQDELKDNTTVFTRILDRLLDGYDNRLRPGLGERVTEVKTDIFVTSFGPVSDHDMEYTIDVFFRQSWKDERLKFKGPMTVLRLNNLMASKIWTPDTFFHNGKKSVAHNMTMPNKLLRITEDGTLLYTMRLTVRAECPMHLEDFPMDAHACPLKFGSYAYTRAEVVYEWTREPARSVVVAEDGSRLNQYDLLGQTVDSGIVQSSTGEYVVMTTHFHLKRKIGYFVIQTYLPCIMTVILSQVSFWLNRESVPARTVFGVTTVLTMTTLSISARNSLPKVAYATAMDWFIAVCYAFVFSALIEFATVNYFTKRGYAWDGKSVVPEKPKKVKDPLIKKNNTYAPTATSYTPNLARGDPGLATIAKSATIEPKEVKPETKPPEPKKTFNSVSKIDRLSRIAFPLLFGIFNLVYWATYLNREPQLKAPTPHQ
UniProt P10635, sequence (whole entry, looked up): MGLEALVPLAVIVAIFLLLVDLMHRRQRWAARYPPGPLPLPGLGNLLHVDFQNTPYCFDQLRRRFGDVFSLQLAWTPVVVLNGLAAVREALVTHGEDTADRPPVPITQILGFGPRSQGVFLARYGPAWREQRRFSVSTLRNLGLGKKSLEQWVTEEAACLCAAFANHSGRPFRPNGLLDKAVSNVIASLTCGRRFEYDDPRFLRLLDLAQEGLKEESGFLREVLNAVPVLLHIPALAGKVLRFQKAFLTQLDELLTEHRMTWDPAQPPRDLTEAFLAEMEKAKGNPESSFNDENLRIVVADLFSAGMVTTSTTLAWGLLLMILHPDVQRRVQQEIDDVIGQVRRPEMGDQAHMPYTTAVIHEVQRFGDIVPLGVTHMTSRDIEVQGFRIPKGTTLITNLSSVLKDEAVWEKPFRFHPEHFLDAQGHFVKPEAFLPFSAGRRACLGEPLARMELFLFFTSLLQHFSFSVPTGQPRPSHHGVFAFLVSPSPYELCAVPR
UniProt Q9BXR0, sequence (whole entry, looked up): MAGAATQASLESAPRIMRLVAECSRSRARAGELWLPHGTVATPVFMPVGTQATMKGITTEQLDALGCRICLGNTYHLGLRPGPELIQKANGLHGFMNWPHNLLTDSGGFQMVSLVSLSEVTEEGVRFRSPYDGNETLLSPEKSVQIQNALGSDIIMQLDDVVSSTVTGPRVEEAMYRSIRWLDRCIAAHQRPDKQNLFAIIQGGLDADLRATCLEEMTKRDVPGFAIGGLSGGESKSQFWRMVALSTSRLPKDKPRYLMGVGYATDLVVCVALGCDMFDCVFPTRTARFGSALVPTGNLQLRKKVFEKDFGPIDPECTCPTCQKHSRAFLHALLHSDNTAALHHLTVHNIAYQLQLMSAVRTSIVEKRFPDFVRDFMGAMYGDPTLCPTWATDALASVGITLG
UniProt O55242, sequence (whole entry, looked up): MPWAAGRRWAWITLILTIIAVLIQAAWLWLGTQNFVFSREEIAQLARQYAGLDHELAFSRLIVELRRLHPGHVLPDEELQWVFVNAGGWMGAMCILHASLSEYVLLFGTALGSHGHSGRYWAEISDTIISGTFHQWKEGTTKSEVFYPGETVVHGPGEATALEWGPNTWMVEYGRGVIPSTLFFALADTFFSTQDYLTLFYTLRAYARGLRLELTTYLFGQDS
UniProt P55210, sequence (whole entry, looked up): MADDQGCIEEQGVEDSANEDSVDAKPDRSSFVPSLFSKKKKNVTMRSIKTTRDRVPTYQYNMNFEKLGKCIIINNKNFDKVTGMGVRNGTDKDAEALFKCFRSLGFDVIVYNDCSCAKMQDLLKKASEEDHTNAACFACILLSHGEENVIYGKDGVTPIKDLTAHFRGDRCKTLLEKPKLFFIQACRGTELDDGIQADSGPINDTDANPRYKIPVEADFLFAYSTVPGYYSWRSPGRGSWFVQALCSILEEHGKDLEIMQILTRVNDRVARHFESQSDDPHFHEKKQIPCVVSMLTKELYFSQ
UniProt P28472, sequence (whole entry, looked up): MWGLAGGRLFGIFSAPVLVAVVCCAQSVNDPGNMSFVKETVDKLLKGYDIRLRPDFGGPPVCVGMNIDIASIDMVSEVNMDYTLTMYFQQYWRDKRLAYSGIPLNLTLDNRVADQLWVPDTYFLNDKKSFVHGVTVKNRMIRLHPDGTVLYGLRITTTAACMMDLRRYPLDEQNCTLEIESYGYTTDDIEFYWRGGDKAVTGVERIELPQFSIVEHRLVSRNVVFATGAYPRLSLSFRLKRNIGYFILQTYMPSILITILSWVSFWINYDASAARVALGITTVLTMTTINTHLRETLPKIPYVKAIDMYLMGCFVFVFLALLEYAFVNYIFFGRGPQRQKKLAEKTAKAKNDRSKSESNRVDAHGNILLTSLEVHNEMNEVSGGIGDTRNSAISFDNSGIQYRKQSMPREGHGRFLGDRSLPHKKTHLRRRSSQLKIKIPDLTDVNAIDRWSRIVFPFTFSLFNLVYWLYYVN
UniProt P22309, sequence (whole entry, looked up): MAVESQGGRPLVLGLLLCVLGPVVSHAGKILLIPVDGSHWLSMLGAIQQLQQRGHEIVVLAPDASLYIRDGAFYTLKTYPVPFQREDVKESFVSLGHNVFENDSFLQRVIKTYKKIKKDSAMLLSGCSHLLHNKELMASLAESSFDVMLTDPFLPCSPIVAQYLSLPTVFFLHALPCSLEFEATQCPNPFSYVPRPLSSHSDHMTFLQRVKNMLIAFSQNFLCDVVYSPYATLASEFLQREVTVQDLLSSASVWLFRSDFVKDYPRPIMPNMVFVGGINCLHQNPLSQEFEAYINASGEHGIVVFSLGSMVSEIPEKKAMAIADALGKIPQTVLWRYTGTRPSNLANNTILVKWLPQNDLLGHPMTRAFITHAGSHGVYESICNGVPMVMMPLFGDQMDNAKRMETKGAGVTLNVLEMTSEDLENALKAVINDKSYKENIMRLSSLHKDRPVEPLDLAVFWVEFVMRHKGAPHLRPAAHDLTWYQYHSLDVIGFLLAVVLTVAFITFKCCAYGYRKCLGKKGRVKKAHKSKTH

`SNC80` gave an EC50 of 0.00194 µM (Delta-type opioid receptor, with Gi2 (OPRD1, Homo sapiens, UniProt P41143); Gi2 activation, agonist).
The IC50 of `Ac-DEVD-CHO` is reported as 0.00549 µM (Caspase-7 (CASP7, Homo sapiens, UniProt P55210); inhibitor).
`propranolol` has a Papp of 14.1 ×10⁻⁶ cm/s (Caco-2).
The EC50 of `pregnenolone sulfate` is reported as > 500 µM (GABA-A receptor alpha-1/beta-3 (GABRA1/GABRB3, Homo sapiens, UniProt P14867+P28472); [3H]muscimol binding, modulator; together with: [3H]muscimol 2 nM).
`mitragynine` has a Ki of 1.1 µM (Cytochrome P450 2D6 (CYP2D6, Homo sapiens, UniProt P10635); enzyme activity, inhibitor; human liver microsomes; together with: dextromethorphan substrate).
The Ki of `biopterin` is reported as 8.72 ± 0.62 µM (Queuine tRNA-ribosyltransferase catalytic subunit 1 (QTRT1, Homo sapiens, UniProt Q9BXR0); queuine exchange, inhibitor, Dixon plot; pH 7.3, 37 °C, together with: queuine, 10 µM tRNA).
`cocaine hydrochloride` gave a Ki of 1.35 ± 0.221 µM (Sigma non-opioid intracellular receptor 1 (Sigmar1, Mus musculus, UniProt O55242); binding, radioligand displacement; mouse brain membranes; 180 min, 37 °C, together with: [3H](+)-pentazocine 3.0 nM).
`buprenorphine hydrochloride` gave an IC50 of > 1000 µM (UDP-glucuronosyltransferase 1A1 (UGT1A1, Homo sapiens, UniProt P22309); 4-MU glucuronidation, inhibitor; together with: 4-MU 100 µM).
For `acetyl pepstatin`, the Kd was 6.1 µM (Gag-Pol polyprotein, protease (Human immunodeficiency virus type 1 group M subtype B, UniProt P03367); binding, differential scanning calorimetry; at melting temperature).
The IC50 of `Ac-DEVD-CHO` is reported as 0.00167 µM (Caspase-3 (CASP3, Homo sapiens, UniProt P42574); enzyme activity).
`evodiamine` gave an IC50 of 20.1 ± 1.36 µM (BCHE; enzyme activity, inhibitor; with Triton).
`phoxim-oxon` has an IC50 of 0.017 µM (Acetylcholinesterase (Ache, Rattus norvegicus, UniProt P37136); inhibitor; rat, postnatal day 70, rat skeletal muscle homogenate; 15 min, 37 °C).
The IC50 of `benzalkonium bromide` is reported as 9.25 ± 6.32 µM (BCHE; enzyme activity, inhibitor, fluorescence).
`deucravacitinib` — result for “subjects with influenza-like illness”: 0% (multiple ascending dose; healthy human; oral, 12 mg once daily).
`ginkgolide B` gave a Kd of 0.045 µM (Rdl (Drosophila melanogaster, UniProt P25123); GABA response, antagonist, koff/kon kinetics).

Excerpt of the above:
`cocaine hydrochloride` gave a Ki of 1.35 ± 0.221 µM (Sigma non-opioid intracellular receptor 1 (Sigmar1, Mus musculus, UniProt O55242); binding, radioligand displacement; mouse brain membranes; 180 min, 37 °C, together with: [3H](+)-pentazocine 3.0 nM).
